Published values of several laboratories.
Parts stem from different laboratories: compare values within a part only. Changes are numbered by the printed parent chain.

Series 1
Target: Interferon regulatory factor 5, full length, phosphomimetic (IRF5, Homo sapiens, UniProt Q13568-2, residues 1-514, K96S/S451D/S453D/S456D/S462D)
Technique: protein-binding microarray
Molecule type: double-stranded DNA, one strand shown
Sample: in vitro
Concentration: 250 nM
Setting: 60-bp whole probe
With: salmon DNA 0.4 mg/ml
Reference: random background probes
Direction: higher = stronger binding
Shared flanks, not repeated: GCCTAGCAC … GTCTTGATTCGCTTGACGCTGCTG
Oligonucleotide	log fluorescence
TGGGAAATTCCTCTGAATAGGTGCTAG	-0.256 z-score
TTAGGTTTCGGACTGGATTAGTGCTAG	5.75 z-score
TTAGATTTCAGACTGGTTTAGTGCTAG	0.479 z-score
GACGGCTTCGGTTTCGGGACGTGCTAG	3.73 z-score
TTAGAACTGGGGTCTGGATTAGTGCTA	-0.323 z-score
TTAGGTTTCGGGTTTCGGTTGGTGCTA	9.42 z-score
GACGGACTGAGTTTCGAGACGTGCTAG	3.94 z-score
TCATGTTTGGCCCTGAAACTGTGCTAG	-0.054 z-score
ACTGCATTCCCTTTCTCAACGTGCTAG	0.519 z-score
TTAGGTTCCCGTTTCGGTTAGTGCTAG	7.85 z-score
TCACTTTCCCCTTCCTAACTGTGCTAG	2.83 z-score
TTAGGTTTCCGTATCCTTTAGTGCTAG	1.29 z-score
GACGGTTTCGGTTGCGGGACGTGCTAG	9.59 z-score
AGAATCTTAGATATTAAACTGTGCTAG	0.523 z-score
TTAGGTATCCTCCTCCTTTAGTGCTAG	-0.0134 z-score
CCCTCCCTAATTCTGATTGGGTGCTAG	-0.158 z-score

Series 2
Target: UBE2E3 UBC core domain (UniProt Q969T4)
UniProt Q969T4, sequence (whole entry, looked up): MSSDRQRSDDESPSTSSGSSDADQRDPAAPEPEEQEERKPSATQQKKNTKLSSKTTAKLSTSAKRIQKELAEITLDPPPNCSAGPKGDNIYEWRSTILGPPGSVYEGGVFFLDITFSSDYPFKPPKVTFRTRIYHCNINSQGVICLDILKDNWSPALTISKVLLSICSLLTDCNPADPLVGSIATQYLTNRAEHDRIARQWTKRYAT
Technique: yeast two-hybrid
Sample: yeast
Setting: mostly zero background
Reference: not given
Direction: higher = stronger interaction
B1: TRIML1 RING domain (UniProt Q8N9V2); chain LMENLREELTCFICLDYFSSPVTTECGHSFCLVCLLRSWEEHNTPLSCPECWRTLEGPHFQS
B2: TRIM5 RING domain (UniProt Q9C035); chain ILVNVKEEVTCPICLELLTQPLSLDCGHSFCQACLTANHKKSMLDKGESSCPVCRISYQPENIRP
B3: RNF208 RING domain (UniProt Q9H0X6); chain SSAAAGEPLECPTCGHSYNVTQRRPRVLSCLHSVCEQCLQILYESCPKYKFISCPTCRRETVLFTDYG
B4: RNF38 RING domain (UniProt Q9H0F5); chain PNNHQSEQTLCVVCMCDFESRQLLRVLPCNHEFHAKCVDKWLKANRTCPICRADASEVHRDS
B5: TRIM4 RING domain (UniProt Q9C037); chain EAEDIQEELTCPICLDYFQDPVSIECGHNFCRGCLHRNWAPGGGPFPCPECRHPSAPAALRP
B6: TRIM13 RING domain (UniProt O60858); chain MELLEEDLTCPICCSLFDDPRVLPCSHNFCKKCLEGILEGSVRNSLWRPAPFKCPTCRKETSATGINS
B7: TRIM5 RING domain (UniProt Q9C035); chain LREVKLSPEGQKVDHCARHGEKLLLFCQEDGKVICWLCERSQEHRGHHTFLTEEVAREYQVKL
Sequence	lacZ reporter activity
QVDKAVFHMQSVKCLKCQEQKRAVLPCQHAALCELCAEGSECPICQPGRAHTLQS (UNK RING domain (UniProt Q9C0B0))	0
MPIRALCTICSDFFDHSRDVAAIHCGHTFHLQCLIQWFETAPSRTCPQCRIQVGKRTIIN (TRAIP RING domain (UniProt Q9BWF2))	0
DHGAVGQEMCCPICCSEYVKGEVATELPCHHYFHKPCVSIWLQKSGTCPVCRCMFPPPL (PJA1 RING domain (UniProt Q8NG27))	0
B1 (TRIML1 RING domain)	0
B2 (TRIM5 RING domain)	0
B3 (RNF208 RING domain)	0
B4 (RNF38 RING domain)	0
FQGDVDEDLICPICSGVLEEPVQAPHCEHAFCNACITQWFSQQQTCPVDRSVVTVAHLRP (RNF41 RING domain (UniProt Q9H4P4))	0
B5 (TRIM4 RING domain)	0
ASLPTSEEDLCPICYAHPISAVFQPCGHKSCKACINQHLMNNKDCFFCKTTIVSVEDWE (RNF123 RING domain (UniProt Q5XPI4))	0
B6 (TRIM13 RING domain)	0
B7 (TRIM5 RING domain)	0

Series 3
Target: CCNB3, cyclin fold, Cln2 fusion (human)
Technique: yeast growth competition, sequencing
Sample: yeast
Setting: weak parent motif
Reference: not given
Direction: higher = stronger binding
Parent: PKMYT1 docking peptide (human); SFEPRNLLSLFED; partner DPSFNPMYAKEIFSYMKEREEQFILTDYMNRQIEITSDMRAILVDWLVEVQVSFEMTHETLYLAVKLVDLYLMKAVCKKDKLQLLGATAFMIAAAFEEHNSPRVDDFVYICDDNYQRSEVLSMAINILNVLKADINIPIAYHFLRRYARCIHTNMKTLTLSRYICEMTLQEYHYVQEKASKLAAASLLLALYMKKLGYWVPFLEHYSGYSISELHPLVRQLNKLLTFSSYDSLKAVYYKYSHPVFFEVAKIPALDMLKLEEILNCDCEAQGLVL
Variant	normalised enrichment score
R5V	0.274
F2P	0.978
R5C	-0.09
S9R	0.59
L10C	0.3
E3M	0.387
S1Q	0.395
N6T	0.563
E12A	0.395
L8I	0.539
F2D	0.449
N6Y	0.613
E3L	0.263
R5Y	0.456
L8W	0.419
R5K F11L	-0.358
L7E	-0.288
L7K	0.279
E12S	0.187
E3A	0.258
E3D	0.317

Series 4
Target: ABI1, truncated, D143A, DHFR fusion (Arabidopsis thaliana)
Technique: DHFR PCA, deep sequencing
Sample: yeast
Setting: methotrexate growth selection, single substitutions
With: (+)-ABA 0 µM
Reference: wild-type fitted maximum
Direction: higher = stronger binding
Parent: PYL1, truncated, DHFR fusion (Arabidopsis thaliana); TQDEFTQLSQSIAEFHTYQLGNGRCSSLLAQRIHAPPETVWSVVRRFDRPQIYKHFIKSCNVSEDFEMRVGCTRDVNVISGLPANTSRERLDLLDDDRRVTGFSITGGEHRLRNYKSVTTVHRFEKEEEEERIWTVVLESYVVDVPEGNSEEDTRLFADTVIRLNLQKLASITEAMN; partner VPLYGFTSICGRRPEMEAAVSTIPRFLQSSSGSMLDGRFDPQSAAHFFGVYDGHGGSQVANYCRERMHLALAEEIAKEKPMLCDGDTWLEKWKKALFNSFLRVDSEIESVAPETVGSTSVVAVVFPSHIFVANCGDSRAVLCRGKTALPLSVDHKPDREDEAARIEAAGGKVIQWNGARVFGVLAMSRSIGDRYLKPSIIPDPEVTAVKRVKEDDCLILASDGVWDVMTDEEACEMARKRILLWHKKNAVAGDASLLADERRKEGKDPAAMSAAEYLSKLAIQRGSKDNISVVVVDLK
Variant	relative binding score
E128R	14.7%
N61I	39.6%
N77R	48.1%
E109I	3.08%
F15V	0.343%
P83V	6.44%
S9K	58.4%
N165L	8.79%
S150F	-15.1%
L82S	7.63%
R74M	1.17%
T135H	-12.1%
E152M	2.85%
G102Q	1.48%
S27L	-1.16%

Series 5
Target: NFIL3, bZIP domain (human)
Technique: DHFR protein complementation
Sample: yeast
Setting: single substitutions, most at no-binding floor
Reference: wild-type JUN-FOS pair
Direction: higher = stronger binding
Parent: JUN, bZIP domain (human); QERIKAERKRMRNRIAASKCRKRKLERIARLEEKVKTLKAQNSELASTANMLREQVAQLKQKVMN; partner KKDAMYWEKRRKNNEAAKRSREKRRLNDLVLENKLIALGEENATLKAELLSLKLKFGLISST
Variant	binding fitness [natural log]
A49S	-1.38
E54K	-1.52
E32S	-1.48
S47N	-1.5
I28F	-1.47
K34S	-1.5
T48C	-1.35
L52R	-1.53
A29K	-1.24
A40W	-1.5
L31E	-1.52
A29P	-1.53
M51Q	-1.46
V35H	-1.34
Q41V	-1.28
N42V	-1.33
A57S	-1.5
L45C	-1.48
R53D	-1.5

Series 6
Target: RNA binding protein fox-1 homolog 2, RRM domain, GST-SBP tag (RBFOX2, Homo sapiens, UniProt O43251-10, residues 100-194)
Technique: RNA Bind-n-Seq
Molecule type: RNA
Sample: in vitro
Concentration: 365 nM
Setting: natural RNA segment, single round, ends assumed
Reference: no-protein control
Direction: higher = stronger binding
Shared flanks, not repeated: GGGAGUUCUACAGUCCGACGAUC … UGGAAUUCUCGGGUGCCAA
Construct (chain): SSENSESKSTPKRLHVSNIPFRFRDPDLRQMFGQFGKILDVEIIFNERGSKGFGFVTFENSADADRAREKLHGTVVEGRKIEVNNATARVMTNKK
Oligonucleotide	RBNS enrichment (R)
ACAGAGCAACCCAGGUUAAACACAGCCCAUGCACAAAGCCACAGGCUAAAUCCUGUGGAAUUGUUUUUAAUGACUGAAUUUAACCAUUUUCAUAGUUGGUUCCUGGAGGU	0.251
GGUGCCACCAGCACCCGUGCCUCCGAAGACCGCUCGGGCAUUCCGCCUGCGCCCUGGGACAGCGGAGAGACGGCUUCUCUUUAAUCUAGGUCCCAUUGUGUCUUGAGGGA	0.487
CAAUAAUUUUAAGGUUCUGUUUUAAAUGUAAGAAUUCCAACUUACAGUCUAUUAAAAUUCAGCCCUAAAAUGACAAAGCCUUCUUAAAGCCUUAUUUUUAAAAUCCCCCA	0.485
ACACCUGUGUAUGUGAAAGUCAUUUUACAUUUCCAAGCAGUCUGUUUCUUAUUUUUAUAUUUUAACUCUAUUCUUGGAUGUAUAAAGUGAACUUUUUCGCUUCUGUAAGU	0.369
CUAUUAACUCAUUGAAUGUGUUUCCUUUGUCUUGUGUUAAUAAAUAUUGAUGCCUGAUUCUGUUUAAUCCUUCACACAUUGGGUGGAGGCUAGGGAAUUGAUAGAUUUUA	0.641
CUGUCUGUAGUGAAUUCAAGUGGGAAAUUUUCAAAAGUUUCUCCUGCUGGAAAUAAGGUAUAAUUUGUAUUUUGCAGACAAUUCAGUAAAGUUACUGGCUUUCUUAGUGA	0.507
GUUUCUUUCGAAUGGCACUACUUUAGGGACAUUCUAGUAUUUGCUUCUAUUGUUUGGGCCUUGUGGAUAAUGUACAGAUUUAAAAACAAAUCUUGUUGCUGAUUUGUCCA	0.322
AUUGAUGUGAGUUAUUAUGUCAAAAAAACUGAUCUAUUAAAGAAGUAAUUGGCCUUUCUGAGCUGAUUUUUCCAUCUUUUGUAAUUAUCUUUAUUAAAAAAUUGUACUUG	0.401
AGAGCCCUUCUCGUUUCUUUUUUAAACUAAUCACCAUAUUGUAAAUUUCAGGGUUUUUUUUUUUUUGUUUAAGCUGACUCUUUGCUCUAAUUUUGGAAAAAAAGAAAUGU	0.745
AAAAUAUGCUUCUACAUAUUUACCACCAUAGGCGUUUUGUUCAUAUGAGCCUGGUUUGUGCAAAAUUAAAUCAGAGGCUUCUACAACAUGGUUUAUUUAUGUUGUAGCAA	0.588
UCUCUCUCCCCCUCAGCAUCUUCCCGCUGAGAGUGGUGGGGAAGAGCCUUGUCUUCUUAGCUGUCACCUGCCGAGGCUUCUGGGCCACUCAGGCCAGUGCACCCCUGGGC	0.216
CCAGGAAGUCCAGUGUACAUUACAGAUUUUCUGGGAGAAAUAGUCCUUCCAGAGAAAGGAUUCCUUCCCAGCCUCCAGGCUGGUGUCUCAUGAGGUGAGGAGGCUGGCCC	0.4

Excerpt of the above (series 5):
Variant	binding fitness [natural log]
E54K	-1.52
E32S	-1.48
S47N	-1.5
I28F	-1.47
K34S	-1.5
T48C	-1.35
L52R	-1.53
A29K	-1.24
A40W	-1.5
L31E	-1.52
A29P	-1.53
M51Q	-1.46
V35H	-1.34
Q41V	-1.28
